{"data": "Measurements pooled from the literature", "CASP7": "Caspase-7 (CASP7, Homo sapiens, UniProt P55210)", "T1": "G-quadruplex DNA, G-quadruplex (Homo sapiens); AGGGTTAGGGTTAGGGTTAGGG", "note": "“And” joins repeats or separate records; there may be more than shown. Numbers after ± are the reported error.", "chain of UniProt P55210 (whole entry, looked up)": "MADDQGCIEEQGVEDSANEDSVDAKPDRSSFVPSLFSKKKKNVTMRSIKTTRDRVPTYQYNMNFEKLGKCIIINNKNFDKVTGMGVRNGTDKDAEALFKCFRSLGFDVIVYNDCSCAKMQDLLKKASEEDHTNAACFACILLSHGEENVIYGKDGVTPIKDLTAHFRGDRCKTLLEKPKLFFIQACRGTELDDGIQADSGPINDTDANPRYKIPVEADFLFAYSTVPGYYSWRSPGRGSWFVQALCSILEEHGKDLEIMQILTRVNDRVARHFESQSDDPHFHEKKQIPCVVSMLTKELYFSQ", "chain of UniProt Q13148 (whole entry, looked up)": "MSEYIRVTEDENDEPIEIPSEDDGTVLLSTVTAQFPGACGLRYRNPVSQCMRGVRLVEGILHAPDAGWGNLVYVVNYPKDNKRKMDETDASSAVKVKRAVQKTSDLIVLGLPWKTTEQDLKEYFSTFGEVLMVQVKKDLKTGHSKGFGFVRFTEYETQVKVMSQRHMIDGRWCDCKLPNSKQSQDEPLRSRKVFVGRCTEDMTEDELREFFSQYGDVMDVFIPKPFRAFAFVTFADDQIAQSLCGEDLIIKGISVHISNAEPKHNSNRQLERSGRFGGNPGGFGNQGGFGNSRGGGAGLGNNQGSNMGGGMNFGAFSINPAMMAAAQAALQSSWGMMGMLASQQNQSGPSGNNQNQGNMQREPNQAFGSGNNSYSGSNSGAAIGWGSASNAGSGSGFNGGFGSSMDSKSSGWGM", "chain of UniProt P34972 (whole entry, looked up)": "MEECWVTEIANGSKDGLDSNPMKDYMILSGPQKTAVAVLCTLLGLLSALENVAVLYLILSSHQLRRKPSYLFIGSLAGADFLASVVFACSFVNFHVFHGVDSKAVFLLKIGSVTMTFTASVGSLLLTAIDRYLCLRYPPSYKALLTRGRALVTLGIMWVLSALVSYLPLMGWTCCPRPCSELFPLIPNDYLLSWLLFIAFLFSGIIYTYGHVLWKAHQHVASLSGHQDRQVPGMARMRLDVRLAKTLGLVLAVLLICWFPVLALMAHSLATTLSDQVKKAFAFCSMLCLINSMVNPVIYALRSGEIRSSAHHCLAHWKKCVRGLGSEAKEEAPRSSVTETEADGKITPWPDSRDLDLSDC", "chain of UniProt P20782 (whole entry, unmodified, looked up)": "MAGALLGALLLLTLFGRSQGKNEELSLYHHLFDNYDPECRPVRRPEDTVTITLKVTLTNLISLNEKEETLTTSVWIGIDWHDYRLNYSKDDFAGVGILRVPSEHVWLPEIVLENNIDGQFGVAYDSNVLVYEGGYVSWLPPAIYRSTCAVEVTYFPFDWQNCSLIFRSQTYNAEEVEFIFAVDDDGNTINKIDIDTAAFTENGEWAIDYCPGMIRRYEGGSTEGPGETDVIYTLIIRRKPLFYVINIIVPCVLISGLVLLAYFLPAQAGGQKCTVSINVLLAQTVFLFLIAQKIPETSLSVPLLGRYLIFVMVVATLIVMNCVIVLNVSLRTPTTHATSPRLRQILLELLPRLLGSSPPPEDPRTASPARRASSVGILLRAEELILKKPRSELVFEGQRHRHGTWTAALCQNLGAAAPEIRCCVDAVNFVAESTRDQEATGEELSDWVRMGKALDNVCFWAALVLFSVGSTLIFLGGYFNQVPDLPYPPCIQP", "chain of UniProt P19491 (whole entry, looked up)": "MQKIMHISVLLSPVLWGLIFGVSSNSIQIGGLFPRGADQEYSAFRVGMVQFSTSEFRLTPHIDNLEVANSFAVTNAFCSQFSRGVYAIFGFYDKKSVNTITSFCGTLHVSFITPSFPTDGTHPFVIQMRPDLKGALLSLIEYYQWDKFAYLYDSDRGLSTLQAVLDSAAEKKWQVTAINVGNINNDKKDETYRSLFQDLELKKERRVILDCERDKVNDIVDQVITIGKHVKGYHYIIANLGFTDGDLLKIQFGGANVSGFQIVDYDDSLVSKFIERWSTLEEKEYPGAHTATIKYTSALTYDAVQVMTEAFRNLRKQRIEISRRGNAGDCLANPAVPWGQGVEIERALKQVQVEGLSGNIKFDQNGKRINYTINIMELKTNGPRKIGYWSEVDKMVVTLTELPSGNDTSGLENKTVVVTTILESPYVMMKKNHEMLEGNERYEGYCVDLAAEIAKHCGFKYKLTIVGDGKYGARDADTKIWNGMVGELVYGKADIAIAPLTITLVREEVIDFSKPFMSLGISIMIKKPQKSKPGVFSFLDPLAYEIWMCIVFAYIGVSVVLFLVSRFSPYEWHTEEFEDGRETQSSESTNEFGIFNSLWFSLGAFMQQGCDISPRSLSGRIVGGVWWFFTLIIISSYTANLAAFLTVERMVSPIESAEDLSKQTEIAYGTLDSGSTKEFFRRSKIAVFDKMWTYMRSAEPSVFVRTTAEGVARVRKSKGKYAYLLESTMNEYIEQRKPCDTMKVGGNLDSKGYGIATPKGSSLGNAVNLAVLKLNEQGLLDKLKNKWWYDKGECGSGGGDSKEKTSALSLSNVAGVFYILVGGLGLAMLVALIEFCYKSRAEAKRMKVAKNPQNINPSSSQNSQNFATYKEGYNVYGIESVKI", "chain of UniProt P48668 (whole entry, looked up)": "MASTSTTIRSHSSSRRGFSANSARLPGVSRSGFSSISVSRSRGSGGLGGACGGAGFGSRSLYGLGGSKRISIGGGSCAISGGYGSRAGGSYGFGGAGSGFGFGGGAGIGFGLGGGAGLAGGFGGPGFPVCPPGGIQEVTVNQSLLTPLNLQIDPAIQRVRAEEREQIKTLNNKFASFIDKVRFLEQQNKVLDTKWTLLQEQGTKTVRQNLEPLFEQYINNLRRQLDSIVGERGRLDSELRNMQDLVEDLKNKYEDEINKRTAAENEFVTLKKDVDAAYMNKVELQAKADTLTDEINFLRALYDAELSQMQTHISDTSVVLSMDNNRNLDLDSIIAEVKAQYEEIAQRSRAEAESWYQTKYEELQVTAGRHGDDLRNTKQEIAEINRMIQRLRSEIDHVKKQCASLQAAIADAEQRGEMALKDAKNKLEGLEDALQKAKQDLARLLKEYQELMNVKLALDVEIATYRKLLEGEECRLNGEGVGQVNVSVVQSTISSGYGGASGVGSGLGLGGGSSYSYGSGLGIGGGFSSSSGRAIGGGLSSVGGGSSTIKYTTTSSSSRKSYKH", "chain of UniProt P04756 (whole entry, unmodified, looked up)": "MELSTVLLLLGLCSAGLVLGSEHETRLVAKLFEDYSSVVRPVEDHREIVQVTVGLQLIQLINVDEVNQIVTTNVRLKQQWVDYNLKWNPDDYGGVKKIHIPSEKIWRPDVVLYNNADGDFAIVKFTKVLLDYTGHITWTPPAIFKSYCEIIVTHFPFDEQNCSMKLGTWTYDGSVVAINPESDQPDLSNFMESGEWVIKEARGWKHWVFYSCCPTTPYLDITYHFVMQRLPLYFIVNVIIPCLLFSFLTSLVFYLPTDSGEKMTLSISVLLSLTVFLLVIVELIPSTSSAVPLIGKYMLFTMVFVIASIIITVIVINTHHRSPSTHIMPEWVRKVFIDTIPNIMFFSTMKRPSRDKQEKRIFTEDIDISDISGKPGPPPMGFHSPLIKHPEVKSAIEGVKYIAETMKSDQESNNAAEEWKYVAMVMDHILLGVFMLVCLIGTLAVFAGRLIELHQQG", "chain of UniProt O75874 (whole entry, unmodified, looked up)": "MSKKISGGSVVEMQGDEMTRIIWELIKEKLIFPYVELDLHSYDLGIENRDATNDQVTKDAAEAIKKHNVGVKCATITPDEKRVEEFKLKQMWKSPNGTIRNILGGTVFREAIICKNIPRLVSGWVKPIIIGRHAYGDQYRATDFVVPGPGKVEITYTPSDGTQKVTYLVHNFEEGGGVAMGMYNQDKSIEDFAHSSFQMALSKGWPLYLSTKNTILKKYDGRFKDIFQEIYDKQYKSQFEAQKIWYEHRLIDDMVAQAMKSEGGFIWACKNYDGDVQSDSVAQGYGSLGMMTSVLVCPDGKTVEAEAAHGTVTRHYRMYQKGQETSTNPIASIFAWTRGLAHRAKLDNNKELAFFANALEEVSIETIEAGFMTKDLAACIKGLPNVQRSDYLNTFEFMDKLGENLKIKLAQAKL", "chain of UniProt Q00987 (whole entry, unmodified, looked up)": "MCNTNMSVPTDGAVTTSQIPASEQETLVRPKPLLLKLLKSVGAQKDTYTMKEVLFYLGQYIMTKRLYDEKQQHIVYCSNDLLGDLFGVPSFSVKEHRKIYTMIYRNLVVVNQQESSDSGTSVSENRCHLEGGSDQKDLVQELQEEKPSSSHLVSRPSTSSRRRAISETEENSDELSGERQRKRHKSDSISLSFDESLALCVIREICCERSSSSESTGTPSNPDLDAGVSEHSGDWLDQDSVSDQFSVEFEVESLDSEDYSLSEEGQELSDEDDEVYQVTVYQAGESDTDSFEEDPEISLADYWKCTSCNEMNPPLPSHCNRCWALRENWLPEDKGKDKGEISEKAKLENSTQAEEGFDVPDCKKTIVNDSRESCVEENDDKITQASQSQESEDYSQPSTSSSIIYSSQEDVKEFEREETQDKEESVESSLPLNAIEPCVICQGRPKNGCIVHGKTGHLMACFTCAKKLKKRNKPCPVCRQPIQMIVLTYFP", "chain of UniProt P02716 (whole entry, unmodified, looked up)": "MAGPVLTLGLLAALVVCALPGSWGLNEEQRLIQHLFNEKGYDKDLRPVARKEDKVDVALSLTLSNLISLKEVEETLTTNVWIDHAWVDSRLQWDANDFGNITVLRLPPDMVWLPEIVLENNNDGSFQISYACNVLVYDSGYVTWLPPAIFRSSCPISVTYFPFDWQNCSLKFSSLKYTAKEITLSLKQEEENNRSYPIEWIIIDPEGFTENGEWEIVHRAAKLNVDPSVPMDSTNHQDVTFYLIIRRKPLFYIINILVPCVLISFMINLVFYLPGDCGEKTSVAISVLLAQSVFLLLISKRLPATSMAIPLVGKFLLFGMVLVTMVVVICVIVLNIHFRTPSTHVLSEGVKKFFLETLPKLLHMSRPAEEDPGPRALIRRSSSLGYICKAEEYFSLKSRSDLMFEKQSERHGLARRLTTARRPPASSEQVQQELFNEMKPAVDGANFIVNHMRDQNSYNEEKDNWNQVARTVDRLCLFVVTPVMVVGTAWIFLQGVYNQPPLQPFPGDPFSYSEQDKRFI"}
{"Structure (SMILES)": "CC(=O)N[C@@H](CC(=O)O)C(=O)N[C@@H](CCC(=O)O)C(=O)N[C@@H](CC(C)C)C(=O)N[C@@H](CC(=O)O)C(=O)COC(=O)c1c(C)cccc1C", "target": "CASP7", "test": "enzyme activity, inhibitor", "endpoint": "kinact/KI", "value": "574000 M⁻¹ s⁻¹"}
{"Structure (SMILES)": "O=C1c2sc(-c3ccc(N4CCC(CO)CC4)nc3F)nc2CCN1c1cccnc1", "target": "TAR DNA-binding protein 43, aggregated (TARDBP, Homo sapiens, UniProt Q13148)", "test": "radioligand binding", "test system": "human, FTLD-TDP type B extract", "conditions": "added: radioligand 102.04 nM", "endpoint": "specific binding", "value": "8.34 nM and 12.9 nM"}
{"Structure (SMILES)": "C[N+]1(C)CCCC1", "target": "Chrnd/Chrna1/Chrne (Mus musculus, UniProt P02716+P04756+P20782, G173S/S470W)", "test": "binding, agonist, single-channel recording", "conditions": "binding site chain S side", "endpoint": "koff", "value": "2910 s⁻¹"}
{"Structure (SMILES)": "Cc1ccc(-n2ncc3cc(NC(=O)C4CC4)ccc32)cc1", "target": "human kinase panel", "test": "binding, KINOMEscan", "conditions": "10000 nM, %Ctrl below 35", "endpoint": "number of kinases hit", "value": 0}
{"Structure (SMILES)": "O=c1[nH]cnc2c(CNCCCP(=O)(O)O)c[nH]c12", "target": "Hypoxanthine-guanine phosphoribosyltransferase (Trypanosoma cruzi, UniProt Q4DGA3)", "test": "inhibitor, inhibition pattern versus hypoxanthine", "conditions": "pH 8.3, 37 °C, added: PRPP 1 mM fixed", "endpoint": "Kii", "value": "940 ± 70 nM"}
{"Structure (SMILES)": "CCOC(=O)C(CC)(CCCSCCOCCOCCOCCOCCNc1ccc([N+](=O)[O-])c2nonc12)NC(=O)c1ccc(C2CC2)c(Cc2ccc(F)cc2)n1 (centres unmarked)", "target": "CNR2 (Homo sapiens, UniProt P34972)", "test": "radioligand binding", "scale": "reference: CB1 over CB2 (human)", "endpoint": "Ki ratio", "value": 16}
{"Structure (SMILES)": "CNC1C[S+]2CC[S+]3CC[S+](C1)[Ru-4]321([N]=C=S)[n]2c3ccc(OC)cc3c3c4c(c5cc(F)c[n+]1c5c32)C(=O)NC4=O (centres unmarked)", "target": "Tyrosine-protein kinase ABL1, phosphorylated (ABL1, Homo sapiens, UniProt P00519, Y253F)", "test": "KinomeScan", "conditions": "0.1 µM", "scale": "reference: untreated", "endpoint": "remaining binding", "value": "93%"}
{"Structure (SMILES)": "Cc1ccc(C(NC(=O)c2cc(-c3ccccc3)n(-c3ccccc3)n2)c2ccncc2)cc1 (centres unmarked)", "target": "Genome polyprotein, NS2B-NS3 protease (dengue virus type 2, UniProt P29990)", "test": "reporter gene", "test system": "HeLa", "conditions": "12.5 µM", "endpoint": "inhibition", "value": "82%"}
{"Structure (SMILES)": "C[C@@H](Nc1nc(N[C@H](C)C(F)(F)F)nc(-c2cccc(Cl)n2)n1)C(F)(F)F", "target": "IDH1 (Homo sapiens, UniProt O75874, R132C)", "test": "refers to: 2-hydroxyglutarate", "test system": "HCT-116", "endpoint": "maximal inhibition", "value": "87%"}
{"Structure (SMILES)": "N#CN1CC[C@H](C(=O)Nc2nc3c(s2)CN(C(=O)CN=[N+]=[N-])CC3)C1", "target": "Keratin, type II cytoskeletal 6C (KRT6C, Homo sapiens, UniProt P48668)", "test": "affinity probe, click pull-down LC-MS/MS", "test system": "HEK293T", "endpoint": "total spectral count", "value": 9}
{"Structure (SMILES)": "COC(=O)Cc1cc2c(cc1C(=O)c1ccccc1Br)OCO2", "target": "Gria2 (Rattus norvegicus, UniProt P19491)", "test": "glutamate-evoked current, whole-cell patch clamp", "test system": "HEK-293T", "conditions": "concentration not given, weighted tau, 500 ms pulse, added: glutamate", "endpoint": "desensitization time constant", "value": "2.4 ± 0.1 ms"}
{"Structure (SMILES)": "CC(=O)N[C@H](C(=O)N[C@@H](CCCCN)C(=O)N[C@@H](CCC(N)=O)C(=O)N[C@@H](CC(=O)O)C(=O)COC(=O)c1c(C)cccc1C)C(C)C", "target": "CASP7", "test": "enzyme activity, inhibitor", "endpoint": "kinact/KI", "value": "800 M⁻¹ s⁻¹"}
{"Structure (SMILES)": "OCC1OC(n2cc(-c3ccc(F)cc3F)nn2)C(O)C(O)C1O (centres unmarked)", "target": "MDM2 (Homo sapiens, UniProt Q00987)", "test": "thermal stability, DSF", "conditions": "30 µM", "endpoint": "ΔTm", "value": "2.44 °C"}
{"Structure (SMILES)": "C#CCCC1(CCC(=O)NCC2CN(CCCCCNC(=O)CN(CCN)C(=O)Cn3cnc4c(=O)[nH]c(N)nc43)CCN(CCCCCNC(=O)CN(CCN)C(=O)Cn3cnc4c(=O)[nH]c(N)nc43)CCN(CCCCCNC(=O)CN(CCN)C(=O)Cn3cnc4c(=O)[nH]c(N)nc43)CCN2CCCCCNC(=O)CN(CCN)C(=O)Cn2cnc3c(=O)[nH]c(N)nc32)N=N1 (centres unmarked)", "target": "T1, G-quadruplex DNA, G-quadruplex (Homo sapiens)", "test": "photo-cross-linking", "endpoint": "binding", "value": "binds"}
{"note": "Repeated from above:"}
{"Structure (SMILES)": "CNC1C[S+]2CC[S+]3CC[S+](C1)[Ru-4]321([N]=C=S)[n]2c3ccc(OC)cc3c3c4c(c5cc(F)c[n+]1c5c32)C(=O)NC4=O (centres unmarked)", "target": "Tyrosine-protein kinase ABL1, phosphorylated (ABL1, Homo sapiens, UniProt P00519, Y253F)", "test": "KinomeScan", "conditions": "0.1 µM", "scale": "reference: untreated", "endpoint": "remaining binding", "value": "93%"}
